Results collected from several papers.
Values joined by “and” are separate records of one study, mostly repeats; a detail may differ. ± gives the spread as reported.

For `CSCC[C@H](NC(=O)[C@@H](NC(=O)[C@H](CC(C)C)NC(=O)[C@@H](NC(=O)[C@H](Cc1c[nH]cn1)NC(=O)CCCCCNC(=O)[C@H](CCCNC(=N)N)NC(=O)[C@H](CCCNC(=N)N)NC(=O)[C@H](CCCNC(=N)N)NC(=O)[C@H](CCC(N)=O)NC(=O)[C@H](CCCNC(=N)N)NC(=O)[C@H](CCCNC(=N)N)NC(=O)[C@H](CCCCN)NC(=O)[C@H](CCCCN)NC(=O)[C@H](CCCNC(=N)N)NC(=O)CNC(=O)[C@@H](N)Cc1ccc(O)cc1)C(C)C)C(C)C)C(=O)N[C@@H](CS)C(=O)N[C@@H](C)C(=O)N[C@H](C(N)=O)[C@@H](C)O`, the serum Albumin was 2.9 g/dL and 2.7 g/dL and 2.8 g/dL (C57BL/6J mice; Alzet osmotic pump, 3 mg/kg, 8 weeks).
For `CC[C@H](C)[C@H](NC(=O)[C@H](C)NC(=O)CNC(=O)[C@H](Cc1c[nH]cn1)NC(=O)[C@@H](NC(=O)[C@H](Cc1ccccc1)NC(=O)[C@H](CCCCN)NC(=O)CNC(=O)[C@H](C)NC(=O)[C@H](CCCCN)NC(=O)[C@H](Cc1ccccc1)NC(=O)[C@@H](NC(=O)[C@H](Cc1c[nH]cn1)NC(=O)[C@H](CCCCN)NC(=O)[C@H](Cc1ccccc1)NC(=O)[C@@H](NC(=O)[C@H](CO)NC(=O)CNC(=O)[C@H](Cc1c[nH]c2ccccc12)NC(=O)CNC(=O)[C@H](C)N)[C@@H](C)CC)[C@@H](C)CC)[C@@H](C)CC)C(=O)N[C@@H](CCC(N)=O)C(=O)N[C@@H](C)C(=O)N[C@@H](Cc1c[nH]cn1)C(=O)N[C@@H](CC(N)=O)C(=O)N[C@@H](CC(=O)O)C(N)=O`, “acute toxic concentration” read 5 µM (zebrafish embryos 28 hpf, E3 medium; 1 h).
`CCCC[C@H]1C(=O)N(C)[C@@H](CCCC)C(=O)N[C@@H](CCCCNC(=S)Nc2ccc(CN3CCN(CC(=O)O)CCN(CC(=O)O)CC3)cc2)C(=O)N[C@H](C(=O)NCC(N)=O)CSCC(=O)N[C@@H](Cc2ccc(O)cc2)C(=O)N(C)[C@@H](C)C(=O)N[C@@H](CC(N)=O)C(=O)N2CCC[C@H]2C(=O)N[C@@H](Cc2cnc[nH]2)C(=O)N[C@@H](CCC(=O)O)C(=O)N2C[C@H](O)C[C@H]2C(=O)N[C@@H](Cc2c[nH]c3ccccc23)C(=O)N[C@@H](CO)C(=O)N[C@@H](Cc2cn(CC(=O)O)c3ccccc23)C(=O)N1C` [fluorine-18 labelled] — result for “median tumour uptake”: 5.56 %ID/mL (region of interest, PET/CT; HCT-116 MSI xenograft, huPBMC NSG mouse, female, tumour; intravenous, 60 min, together with: saline treated).
With `CC[C@H](C)[C@H](NC(=O)[C@H](CCCCN)NC(=O)CNC(=O)[C@H](CC(C)C)NC(=O)[C@H](Cc1ccccc1)NC(=O)[C@H](CCCCN)NC(=O)[C@H](CO)NC(=O)[C@H](Cc1ccccc1)NC(=O)[C@H](Cc1c[nH]c2ccccc12)NC(=O)[C@H](CCC(N)=O)NC(=O)[C@@H](NC(=O)[C@H](Cc1ccccc1)NC(=O)CCCCCNC(=O)CN1CCN(CC(=O)O)CCN(CC(=O)O)CCN(CC(=O)O)CC1)C(C)C)C(=O)N[C@@H](CCC(=O)O)C(=O)N1CCC[C@H]1C(=O)N[C@@H](CC(=O)O)C(=O)N[C@H](C(=O)N[C@@H](CO)C(=O)N[C@@H](CCC(N)=O)C(=O)N[C@H](C(=O)N[C@@H](CCC(N)=O)C(=O)N[C@@H](CC(=O)O)C(=O)N1CCC[C@H]1C(=O)N[C@@H](CC(N)=O)C(=O)N[C@@H](CC(=O)O)C(=O)N[C@@H](CCC(N)=O)C(=O)N[C@@H](Cc1ccc(O)cc1)C(=O)N[C@@H](CCC(=O)O)C(=O)N1CCC[C@H]1C(=O)N[C@@H](Cc1ccccc1)C(=O)O)C(C)C)C(C)C` [copper-64 labelled] the SUVmean was 4.57 SUV (dynamic PET; mouse, CT26 tumour, checkpoint inhibitor-treated, tumour; intravenous, 100 µCi/mouse, 1620 s).
`CC1(C)C(=O)N(c2ccc(C#N)c(C(F)(F)F)c2)C(=S)N1c1ccc(C(N)=O)c(F)c1` has an MRT of 401 h (male human, plasma; oral, 40 mg, single dose, fasted).
Under “cumulative faecal excretion”, `COc1ccc([C@@H]2CC(=O)c3c(O)cc(O[C@@H]4O[C@H](CO)[C@@H](O)[C@H](O)[C@H]4O[C@@H]4O[C@@H](C)[C@H](O)[C@@H](O)[C@H]4O)cc3O2)cc1O` is recorded as 3350 ± 1220 ng (male Sprague-Dawley rats, lean, faeces; oral, 100 mg/kg, 48 h).
The half-life of `CCN(CC)CCOc1ccc(-c2nnn(Cc3ccc(OC)cc3)c2N)cc1` is reported as 1.2 h (metabolic stability; rat, liver microsomes).
The gamma-glutamyltransferase activity of `O=C1NC2(CC2)COc2ncc(F)cc2[C@H]2COCCN2c2ccn3ncc1c3n2` is reported as 0.5 ± 0.3 U/L (Sprague-Dawley rat, female, serum; oral, 10 mg/kg/day, 4 weeks daily, end of treatment).
Under “brain to plasma AUC ratio”, `O=C(Nc1cccs1)c1cccnc1` is recorded as 6 (mouse; intravenous, 5 mg/kg).
`CSCC[C@@H]1NC(=O)[C@H](C(C)C)NC(=O)[C@H](CCCNC(=N)N)NC(=O)[C@@H]2CCCN2C(=O)CNC(=O)[C@@H](NC(=O)CNC(=O)[C@H](CO)NC(=O)CNC(=O)[C@H](CO)NC(=S)Nc2ccc(C[C@H]3CN(CC(=O)O)CCN(CC(=O)O)CCN3CC(=O)O)cc2)CSSC[C@@H](C(N)=O)NC(=O)[C@@H]2CCCN2C(=O)CNC(=O)[C@H](CCC(=O)O)NC(=O)[C@H](CC(=O)O)NC(=O)[C@H](CC(=O)O)NC(=O)CNC(=O)[C@H](CC(C)C)NC(=O)[C@H](Cc2c[nH]cn2)NC(=O)[C@H](CC(C)C)NC(=O)CNC(=O)[C@H](Cc2c[nH]cn2)NC1=O` [copper-64 labelled] has a clearance half-life of 0.347 ± 0.0117 h (dynamic PET; CD rat, myocardial infarction, remote myocardium; intravenous, 18.5 MBq).
For `CC(C)=CCC/C(C)=C\CCn1cc(CC(C)(P(=O)(O)O)P(=O)(O)O)nn1`, the concentration was 6570 ± 2590 ng/mL (mouse CD-1, bile; intravenous, 0.3 mg/kg, 8 h).
`CCN(Cc1ccccc1)C(=O)CCc1nc(CN2CCN(C(=O)Cc3ccc(OC)c(OC)c3)CC2)no1`: “time to fall” 1.7 ± 0.22 min (rotarod test; mouse, CCI neuropathic pain model; 20 mg/kg).
With `Cc1cc(-c2ccc3ccccc3c2)nnc1NCCN1CCN(C)CC1` the compound remaining was 62.7% (metabolic stability; rat, liver microsomes; 1 h).
The viability of `Cc1ccc(OCCN(C)C)cc1C(=O)N[C@H](C)c1cc(-c2ccc(C#N)nc2)nc2ccccc12` is reported as 98.8% and 103% (Vero E6; 7.812 µM).
For `N#[11C]c1ccc(-c2csc(NN=C3CCCC3)n2)cc1`, the radioactivity uptake was 9.34 ± 1.17 %ID/g (C57BL/6 mice, male, bladder; intravenous, 3 MBq, 5 min).
The haemolysis of `Oc1c(Br)cc(Br)c2nc3cc(C(F)(F)F)ccc3nc12` is reported as at most 1% (haemolysis; 200 µM).
For `Cc1ccc(N2CCN(C)CC2)cc1C(=O)N[C@H](C)c1cc(-c2cnn(C)c2)nc2ccccc12`, the viability was 87.1% (African green monkey cells; 31.25 µM).
The AST of `CC(C)[C@@H]1NC(=O)CNC(=O)[C@H](CC(N)=O)NC(=O)[C@H](CCCNC(=N)N)NC(=O)[C@H](Cc2ccc(O)cc2)NC(=O)[C@H](C(C)C)NC(=O)[C@@H](NC(=O)[C@@H](NC(=O)[C@H](CC(N)=O)NC(=O)[C@H](Cc2c[nH]c3ccccc23)NC(=O)[C@H](C)NC(=O)[C@H](Cc2ccccc2)NC(=O)CNC(=O)[C@H](CCCCN)NC(=O)[C@H](Cc2ccccc2)NC(=O)[C@H](Cc2ccccc2)NC(=O)[C@H](CCCCN)NC(=O)OCC2c3ccccc3-c3ccccc32)C(C)C)CSSC[C@@H](C(=O)N[C@@H](Cc2c[nH]cn2)C(=O)N[C@@H](CCCNC(=N)N)C(=O)N[C@@H](CCCNC(=N)N)C(=O)N[C@@H](C)C(=O)N[C@@H](CC(N)=O)C(N)=O)NC(=O)[C@H](C(C)C)NC(=O)[C@H](CCCNC(=N)N)NC1=O` is reported as 25.7 ± 2.01 IU/L (ICR mice, serum; intraperitoneal, 5 mg/kg, day 5).
For `CCCCCCCCCCCCCCCC(=O)N[C@@H](CCC(=O)NCCCC[C@H](NC(=O)[C@H](CC(=O)O)NC(=O)[C@H](CO)NC(=O)[C@@H](NC(=O)[C@H](Cc1ccccc1)NC(=O)[C@@H](NC(=O)CNC(=O)[C@H](CCC(N)=O)NC(=O)[C@H](C)NC(=O)[C@@H](Cc1ccc(O)cc1)NC(C)=O)[C@@H](C)O)[C@@H](C)O)C(=O)N[C@@H](CO)C(=O)N[C@@H](CCCCN)C(=O)N[C@@H](Cc1ccc(O)cc1)C(=O)N[C@@H](CC(C)C)C(=O)N[C@@H](CC(=O)O)C(=O)N[C@@H](CCC(=O)O)C(=O)N[C@@H](CCCNC(=N)N)C(=O)N[C@@H](C)C(=O)N[C@@H](C)C(=O)N[C@@H](CCC(N)=O)C(=O)N[C@@H](CC(=O)O)C(=O)N[C@@H](Cc1ccccc1)C(=O)N[C@H](C(=O)N[C@@H](CCC(N)=O)C(=O)N[C@@H](Cc1c[nH]c2ccccc12)C(=O)N[C@@H](CC(C)C)C(=O)N[C@@H](CC(C)C)C(=O)N[C@@H](CCC(=O)O)C(=O)NCC(=O)NCC(=O)N1CCC[C@H]1C(=O)N[C@@H](CO)C(=O)N[C@@H](CO)C(=O)NCC(=O)N[C@@H](C)C(=O)N1CCC[C@H]1C(=O)N1CCC[C@H]1C(=O)N1CCC[C@H]1C(=O)N[C@@H](CO)C(N)=O)C(C)C)C(=O)O`, “central volume of distribution” read 0.0305 to 0.0321 L/kg (cynomolgus monkey, plasma; intravenous, 0.0031 mg/kg).

Repeated from above:
For `CC[C@H](C)[C@H](NC(=O)[C@H](C)NC(=O)CNC(=O)[C@H](Cc1c[nH]cn1)NC(=O)[C@@H](NC(=O)[C@H](Cc1ccccc1)NC(=O)[C@H](CCCCN)NC(=O)CNC(=O)[C@H](C)NC(=O)[C@H](CCCCN)NC(=O)[C@H](Cc1ccccc1)NC(=O)[C@@H](NC(=O)[C@H](Cc1c[nH]cn1)NC(=O)[C@H](CCCCN)NC(=O)[C@H](Cc1ccccc1)NC(=O)[C@@H](NC(=O)[C@H](CO)NC(=O)CNC(=O)[C@H](Cc1c[nH]c2ccccc12)NC(=O)CNC(=O)[C@H](C)N)[C@@H](C)CC)[C@@H](C)CC)[C@@H](C)CC)C(=O)N[C@@H](CCC(N)=O)C(=O)N[C@@H](C)C(=O)N[C@@H](Cc1c[nH]cn1)C(=O)N[C@@H](CC(N)=O)C(=O)N[C@@H](CC(=O)O)C(N)=O`, “acute toxic concentration” read 5 µM (zebrafish embryos 28 hpf, E3 medium; 1 h).
`CCCC[C@H]1C(=O)N(C)[C@@H](CCCC)C(=O)N[C@@H](CCCCNC(=S)Nc2ccc(CN3CCN(CC(=O)O)CCN(CC(=O)O)CC3)cc2)C(=O)N[C@H](C(=O)NCC(N)=O)CSCC(=O)N[C@@H](Cc2ccc(O)cc2)C(=O)N(C)[C@@H](C)C(=O)N[C@@H](CC(N)=O)C(=O)N2CCC[C@H]2C(=O)N[C@@H](Cc2cnc[nH]2)C(=O)N[C@@H](CCC(=O)O)C(=O)N2C[C@H](O)C[C@H]2C(=O)N[C@@H](Cc2c[nH]c3ccccc23)C(=O)N[C@@H](CO)C(=O)N[C@@H](Cc2cn(CC(=O)O)c3ccccc23)C(=O)N1C` [fluorine-18 labelled] — result for “median tumour uptake”: 5.56 %ID/mL (region of interest, PET/CT; HCT-116 MSI xenograft, huPBMC NSG mouse, female, tumour; intravenous, 60 min, together with: saline treated).
